Published values of several laboratories.
Organism: Escherichia coli

SMILES	assay	test system	setting	MIC
CC1(C)[C@H](NC(=O)/C(=N\OCC(=O)N2CCC[C@@H]2C(=O)O)c2nsc(N)n2)C(=O)N1OS(=O)(=O)O	agar dilution	CDC 1001728, NDM-1		16 µg/mL
CCCCCCCCCCCC(=O)C(C)C(=O)N1CCC[C@H]1C(=O)NC(C)(C)C(=O)NC(C)(C)C(=O)NC(C)(C)C(=O)N[C@](C)(CC)C(=O)NCCC(=O)N[C@@H](C)C(=O)N[C@](C)(CC)C(=O)N[C@@H](C)C(=O)N[C@@H](CC(C)C)C(=O)N[C@](C)(CC)C(=O)NCCC(=O)N[C@@H](C)C(=O)N[C@](C)(CC)C(=O)NCCC(=O)N[C@@H](C)C(=O)NC(C)(C)C(=O)NC(C)(C)C(=O)NC(C)(C)C(=O)N[C@@H](C)C(=O)N[C@@H](CC(=O)O)C(=O)O (some centres unmarked)		BW25113 ΔbamB ΔtolC		> 128 µg/mL
CC(C)C[C@@H](NC(=O)[C@H](NC(=O)[C@@H](CCCCN)NC(=O)[C@@H](CCCCN)NC(=O)[C@@H](CC(C)C)NC(=O)[C@@H](Cc1c[nH]c2ccccc12)NC(=O)[C@@H](CCCCN)NC(=O)[C@@H](CC(C)C)NC(=O)[C@@H](CC(C)C)NC(=O)[C@@H](CCCCN)NC(=O)[C@@H](CCCCN)NC(=O)[C@H](N)C(C)C)C(C)C)C(N)=O			24 h, 37 °C, Mueller-Hinton broth, NaCl 150 mM	8 µM
CC[C@H](C)[C@H](NC(=O)[C@@H]1CCCN1C(=O)CNC(=O)[C@H](CC(C)C)NC(=O)[C@H](CCCCN)NC(=O)[C@H](CCCNC(=N)N)NC(=O)[C@H](Cc1c[nH]c2ccccc12)NC(=O)[C@H](C)NC(=O)[C@H](CC(N)=O)NC(=O)[C@H](CCCCN)NC(=O)[C@H](CC(C)C)NC(=O)[C@H](CCCCN)NC(=O)[C@H](CC(N)=O)NC(=O)[C@H](CCCNC(=N)N)NC(=O)[C@H](C)NC(=O)[C@H](CCCNC(=N)N)NC(=O)[C@H](CCCNC(=N)N)NC(=O)[C@H](Cc1ccccc1)NC(=O)[C@H](Cc1c[nH]c2ccccc12)NC(=O)CN)C(=O)N[C@H](C(=O)NCC(=O)N1CCC[C@H]1C(=O)N[C@@H](CC(C)C)C(=O)N[C@@H](CC(C)C)C(=O)N[C@H](C(=O)N[C@@H](CCCNC(=N)N)C(=O)O)[C@@H](C)O)C(C)C	broth microdilution	K88, Mueller-Hinton broth	37 °C	2.2 µg/mL
CC(C)C[C@@H](NC(=O)[C@@H](CC(C)C)NC(=O)[C@@H](CCCCN)NC(=O)[C@@H](CCCCNC(=O)[C@@H](CC(C)C)NC(=O)[C@@H](CC(C)C)NC(=O)[C@@H](CCCCNC(=O)[C@@H](CC(C)C)NC(=O)[C@@H](CCCCN)NC(=O)[C@@H](CCCCNC(=O)[C@@H](CC(C)C)NC(=O)[C@H](N)CCCCN)NC(=O)[C@@H](CC(C)C)NC(=O)[C@H](N)CCCCN)NC(=O)[C@@H](CC(C)C)NC(=O)[C@@H](CCCCN)NC(=O)[C@@H](CCCCNC(=O)[C@@H](CC(C)C)NC(=O)[C@H](N)CCCCN)NC(=O)[C@@H](CC(C)C)NC(=O)[C@H](N)CCCCN)NC(=O)[C@@H](CC(C)C)NC(=O)[C@@H](CC(C)C)NC(=O)[C@@H](CCCCNC(=O)[C@@H](CC(C)C)NC(=O)[C@@H](CCCCN)NC(=O)[C@@H](CCCCNC(=O)[C@@H](CC(C)C)NC(=O)[C@H](N)CCCCN)NC(=O)[C@@H](CC(C)C)NC(=O)[C@H](N)CCCCN)NC(=O)[C@@H](CC(C)C)NC(=O)[C@@H](CCCCN)NC(=O)[C@@H](CCCCNC(=O)[C@@H](CC(C)C)NC(=O)[C@H](N)CCCCN)NC(=O)[C@@H](CC(C)C)NC(=O)[C@H](N)CCCCN)C(N)=O	broth microdilution	Citrobacter freundii blaOXA-48	20 h, 37 °C	16 µg/mL
CC[C@H](C)[C@H](NC(=O)[C@@H](CCCNC(=N)N)NC(=O)[C@H](CCCNC(=N)N)NC(=O)[C@@H]1CCCN1C(=O)[C@@H]1CCCN1C(=O)[C@H](CCCNC(=N)N)NC(=O)[C@@H]1CCCN1C(=O)[C@H](CCCNC(=N)N)NC(=O)[C@@H]1CCCN1C(=O)[C@H](Cc1ccccc1)NC(=O)[C@H](Cc1ccc(O)cc1)NC(=O)[C@@H]1CCCN1C(=O)[C@@H]1CCCN1C(=O)[C@H](CCCCN)NC(=O)[C@H](CC(=O)O)NC(=O)[C@@H](N)C(C)C)C(=O)N[C@@H](Cc1ccc(O)cc1)C(=O)N[C@@H](CC(N)=O)C(=O)N[C@H](CCCNC(=N)N)C(N)=O	broth microdilution	ATCC 25922	18 h, 37 °C, 25% MHB2	64 µg/mL
CC1(C)[C@H](NC(=O)/C(=N\OCC(=O)N2CCC(C(=O)O)CC2)c2csc(N)n2)C(=O)N1OS(=O)(=O)O	agar dilution	08-85, mcr-1		8 µg/mL
CCn1c(-c2ccc(F)cc2)c(-c2ccc(F)cc2)n(CCOC)c1=[Se]	broth microdilution	carbapenem-resistant BAA-2140	24 h	> 40 µM
